Results pooled from the literature.
“And” joins repeats or separate records; there may be more than shown. ± gives the spread as reported.

| Compound | target or system | assay | test system | setting | scale | measurement | value |
| --- | --- | --- | --- | --- | --- | --- | --- |
| O=C(CNC(=O)[C@H](Cc1ccccc1)NC(=O)[C@H](Cc1ccccc1)NC(=O)Cc1ccc2ccccc2c1)N[C@@H](Cc1ccc(OP(=O)(O)O)cc1)C(=O)O | HS5 | cell growth or viability, MTT | – | – | – | GI50 | 472 µM |
| Cc1c(Cl)cccc1Nc1ccccc1C(=O)[Se]CC(=O)Nc1cccc(C(F)(F)F)c1 | NCI60 prostate subpanel (PC-3, DU-145) | cytotoxicity, inhibitor | – | five-dose | – | CC50 | 5.03 µM |
| CC(C)(C)C(=O)OCOP(=O)(OCOC(=O)C(C)(C)C)C1CCCN(O)C1=O (stereo not shown) | SR | – | – | – | – | CC50 | > 100 µM |
| NC(=O)N/N=C/c1ccc(OCc2cccc(F)c2)cc1 | IMR-32 | – | – | 500 µg/mL, 24 h | higher = more activity | catalase activity (OD450) | 0.073 a.u. |
| Cc1cc(Oc2nc(N3CC[C@@H](c4ccncc4)C3)ncc2F)[nH]n1 | NCI-H82 | cell proliferation | lung cancer | – | – | IC50 | 74.1 µM |
| O=C(C[Se]C(=O)c1ccccc1Nc1cccc(C(F)(F)F)c1)Nc1cccc(C(F)(F)F)c1 | NCI60 renal subpanel | cytotoxicity, inhibitor | – | five-dose | – | CC50 | 8.66 µM |
| C=CCN1C(=O)C(CC=C)(C(=O)OCC)Oc2cc(F)ccc21 (stereo not shown) | HEK293T | cytotoxicity, CCK-8 | – | 12.5 µM, 72 h | – | inhibition | 0.43 ± 0.13% |
| CC(C)CC(O)(CC(C)C)c1cn(C(=O)N2CCCC2)nn1 | mouse T-cells | SILAC proteomics, refers to: Arhgef2 | – | 1 nM, 6 h, single peptides, unit not given | baseline: DMSO | protein level | 1.03 and 1.13 |
| O=C1NC2(CC2)COc2ncc(F)cc2[C@H]2COCCN2c2ccn3ncc1c3n2 | – | – | Sprague-Dawley rat, male, blood | oral, 2.5 mg/kg/day, 4 weeks, end of treatment, subacute toxicity | – | mean corpuscular haemoglobin | 20.2 ± 1.1 pg |
| O=C(C[Se]C(=O)c1ccco1)Nc1cccc(C(F)(F)F)c1 | NCI60 ovarian subpanel | cell growth | – | 10 µM, 48 h, one-dose | – | mean growth percent | -14.6% |
| C#CCN1C(=O)C(CC#C)(C(=O)OCC)Oc2ccccc21 (stereo not shown) | HEK293T | cytotoxicity, CCK-8 | – | 50 µM, 72 h | – | inhibition | 0.72 ± 0.33% |
| CC(C)Cc1ccc(C(C)C(=O)[Se]CC(=O)Nc2cccc(C(F)(F)F)c2)cc1 (stereo not shown) | NCI60 ovarian subpanel | cytotoxicity, inhibitor | – | five-dose | – | CC50 | 9.56 µM |
| O=C(O)c1ccc(-c2nc(-c3ccccc3Cl)c3sccn23)cc1 | K562 | erythroid differentiation, flow cytometry | – | 0.1 mM, 48 h | baseline: untreated | CD235a fluorescence intensity | 0.44 fold change and 0.6 fold change and 0.74 fold change |
| CC[C@H](C)[C@H](NC(=O)[C@H](C)NC(=O)CNC(=O)[C@H](Cc1ccccc1)NC(=O)[C@H](CC(N)=O)NC(=O)[C@H](CC(N)=O)NC(=O)[C@H](CO)NC(=O)[C@H](CO)NC(=O)[C@H](Cc1c[nH]cn1)NC(=O)[C@@H](NC(=O)[C@H](CC(C)C)NC(=O)[C@H](Cc1ccccc1)NC(=O)[C@H](CC(N)=O)NC(=O)[C@H](C)NC(=O)[C@H](CC(C)C)NC(=O)[C@H](CCCNC(=N)N)NC(=O)[C@H](CCC(N)=O)NC(=O)[C@@H](NC(=O)[C@H](C)NC(=O)[C@@H]1CSSC[C@H](NC(=O)[C@@H](N)CCCCN)C(=O)N[C@@H](CC(N)=O)C(=O)N[C@@H]([C@@H](C)O)C(=O)N[C@@H](C)C(=O)N[C@@H]([C@@H](C)O)C(=O)N1)[C@@H](C)O)C(C)C)C(=O)N[C@@H](CC(C)C)C(=O)N[C@@H](CO)C(=O)N[C@@H](CO)C(=O)N[C@H](C(=O)N[C@@H](CC(N)=O)C(=O)N[C@H](C(=O)NCC(=O)N[C@@H](CO)C(=O)N[C@@H](CC(N)=O)C(=O)N[C@H](C(=O)N[C@@H](Cc1ccc(O)cc1)C(N)=O)[C@@H](C)O)C(C)C)[C@@H](C)O | RIN-m5F | ELISA | pure mitochondrial fraction | 24 h | baseline: total | internalized fraction | < 3% and < 2% |
| COc1ccccc1-c1ccncc1C(=O)Nc1nnc(OCc2ccc(Cl)cc2)s1 | RPE-1 BRCA1 WT parental | – | – | 4 µM, run 2 | baseline: untreated | colony survival | 71.1% |
| N[C@H](C(=O)N1CCCC1)C1CCN(c2nccc3c(-c4ncc(Cl)cc4Cl)cccc23)CC1 | human neutrophils | protein citrullination, inhibitor, flow cytometry, refers to: citrullinated histone H3 | – | 3.16 µM, added: ionomycin | – | inhibition | 79.3% and 80% and 81.1% and 83.1% |
| O=c1n(CCNCCOS(=O)(=O)c2ccccc2)c(=O)n(S(=O)(=O)c2ccccc2)c(=O)n1S(=O)(=O)c1ccccc1 | A549 | cell growth or viability, MTT | – | 50 µg/mL, 48 h | – | viability | 33.8% |
| O=C(C[Se]C(=O)c1cccs1)Nc1cccc(C(F)(F)F)c1 | NCI60 non-small-cell lung subpanel | cell growth | – | 10 µM, 48 h, one-dose | – | mean growth percent | -88.3% |
| CSCC[C@H](NC(=O)[C@@H](NC(=O)[C@H](CCC(N)=O)NC(=O)[C@H](CO)NC(=O)[C@@H](N)C(C)C)[C@@H](C)O)C(=O)N[C@@H](CCCNC(=N)N)C(=O)N[C@@H](CCC(N)=O)C(=O)N[C@H](C(=O)N[C@@H](C)C(=O)N[C@H](C(=O)N1CCC[C@H]1C(=O)N[C@@H](CC(C)C)C(=O)N[C@@H](CC(C)C)C(=O)N[C@@H](Cc1c[nH]c2ccccc12)C(=O)N[C@@H](Cc1ccccc1)C(=O)N[C@@H](Cc1c[nH]c2ccccc12)C(=O)N[C@H](C(=O)NCC(=O)N[C@@H](CO)C(=O)N[C@@H](CC(C)C)C(=O)NCCOCCOCCOCCOCCOCCOCCOCCOCCOCCOCCOCCOCCC(=O)N[C@@H](CS)C(N)=O)[C@@H](C)O)C(C)C)[C@@H](C)O | H1648 | phage binding | – | 10 min, 37 °C | baseline: control phage | selectivity ratio | 1.4 ± 0.22 |
| O=C1C=CC(=O)c2c(O)cccc21 | MOLT-3 | XTT | – | – | baseline: IC50 MRC-5 over IC50 MOLT-3 | selectivity index | 3.31 |
| O=C(C[Se]C(=O)c1ccccc1)Nc1cccc(C(F)(F)F)c1 | NCI60 ovarian subpanel | total growth inhibition, inhibitor | – | five-dose | – | mean TGI | 5.3 µM |
| CC(C)C[C@H](NC(=O)[C@H](CC(=O)O)NC(=O)CNC(=O)[C@@H](N)CCCNC(=N)N)C(=O)N[C@@H](C)C(=O)N[C@H](C(=O)N[C@@H](CC(C)C)C(=O)N[C@@H](CCCNC(=N)N)C(=O)N[C@@H](CCC(N)=O)C(=O)N[C@@H](CC(C)C)C(=O)N[C@@H](C)C(=O)N[C@@H](CCC(N)=O)C(=O)N[C@@H](CCC(=O)O)C(=O)N[C@@H](CC(=O)O)C(=O)NCC(=O)N[C@H](C(=O)N[C@H](C(=O)NCC(=O)N[C@H](C(=O)N[C@@H](CCCNC(=N)N)C(=O)NCCOCCOCCOCCOCCOCCOCCOCCOCCOCCOCCOCCOCCC(=O)N[C@@H](CS)C(N)=O)C(C)C)C(C)C)C(C)C)[C@@H](C)O | HCC515 | phage binding | – | – | baseline: targeting over control phage | selectivity ratio | 95 ± 29 |
| O=C(C[Se]C(=O)c1ccc2ccccc2n1)Nc1cccc(C(F)(F)F)c1 | NCI60 renal subpanel | cytotoxicity, inhibitor | – | five-dose | – | CC50 | 6.77 µM |
| CCOC(=O)C1(Cc2ccccc2)Oc2cc(F)ccc2N(Cc2ccccc2)C1=O (stereo not shown) | HEK293T | cytotoxicity, CCK-8 | – | 1.56 µM, 72 h | – | inhibition | 0.02 ± 0.34% |
| Cc1cccc(-c2cccc(C)n2)n1.Cc1cccc(-c2cccc(C)n2)n1.F[P-](F)(F)(F)(F)F.F[P-](F)(F)(F)(F)F.[Ru+2].c1ccc2c(-c3nc4c5cccnc5c5ncccc5c4[nH]3)cccc2c1 | SK-MEL-28 | – | – | normoxia, added: green light 523 nm, 100 J/cm2 | baseline: dark over light EC50 | phototoxicity index | 2 |
| CC(C)[C@H](NC(=O)[C@H](CCCNC(=N)N)NC(=O)[C@@H]1CCCN1C(=O)[C@@H](NC(=O)[C@H](C)NC(=O)[C@H](Cc1ccc(O)cc1)NC(=O)[C@H](CCC(N)=O)NC(=O)[C@H](CCCCN)NC(=O)[C@H](CCCNC(=N)N)NC(=O)[C@@H]1CCCN1C(=O)[C@H](CCC(=O)O)NC(=O)[C@@H](NC(=O)[C@H](C)N)[C@@H](C)O)[C@@H](C)O)C(=O)N[C@@H](Cc1ccccc1)C(=O)N[C@@H](Cc1c[nH]c2ccccc12)C(=O)N[C@H](C(=O)N[C@@H](CC(=O)O)C(=O)N[C@@H](C)C(=O)N1CCC[C@H]1C(=O)NCC(=O)NCCOCCOCCOCCOCCOCCOCCOCCOCCOCCOCCOCCOCCC(=O)N[C@@H](CS)C(N)=O)[C@@H](C)O | PANC-1 pancreatic cancer | cell binding, phage binding, refers to: output/input phage | – | 10 min, 37 °C | baseline: control phage | selectivity ratio | 9 ± 3 |
| [Cl-].[Cl-].[Ru+2].c1ccc(-c2ccccn2)nc1.c1ccc(-c2ccccn2)nc1.c1ccc2cc3nc4c5cccnc5c5ncccc5c4nc3cc2c1 | SK-MEL-28 | – | – | normoxia, added: blue light 453 nm, 100 J/cm2 | baseline: dark over light EC50 | phototoxicity index | 1150 |
| CC(=O)NCSC[C@H](NC(=O)[C@@H]1CCCN1C(=O)[C@H](C)NC(=O)[C@@H](NC(=O)CNC(=O)[C@@H](NC(=O)[C@H](Cc1c[nH]c2ccccc12)NC(=O)[C@H](C)NC(=O)CNC(=O)[C@H](CO)NC(=O)[C@H](C)NC(=O)[C@@H]1CCCN1C(=O)[C@H](Cc1c[nH]c2ccccc12)NC(=O)[C@H](C)NC(=O)[C@H](C)NC(=O)[C@@H](N)Cc1ccc(O)cc1)[C@@H](C)O)[C@@H](C)O)C(=O)N[C@@H](CO)C(=O)N[C@@H](C)C(=O)NCC(=O)N[C@H](C(=O)NCCOCCOCCOCCOCCOCCOCCOCCOCCOCCOCCOCCOCCC(=O)N[C@@H](CS)C(N)=O)[C@@H](C)O | H157 lung squamous carcinoma | cell binding, phage binding, refers to: output/input phage | – | 10 min, 37 °C | baseline: control phage | selectivity ratio | 3.7 ± 0.7 |

For quick reference, copied from above:
| Compound | target or system | assay | test system | setting | scale | measurement | value |
| --- | --- | --- | --- | --- | --- | --- | --- |
| NC(=O)N/N=C/c1ccc(OCc2cccc(F)c2)cc1 | IMR-32 | – | – | 500 µg/mL, 24 h | higher = more activity | catalase activity (OD450) | 0.073 a.u. |
| O=C(C[Se]C(=O)c1ccco1)Nc1cccc(C(F)(F)F)c1 | NCI60 ovarian subpanel | cell growth | – | 10 µM, 48 h, one-dose | – | mean growth percent | -14.6% |
| O=c1n(CCNCCOS(=O)(=O)c2ccccc2)c(=O)n(S(=O)(=O)c2ccccc2)c(=O)n1S(=O)(=O)c1ccccc1 | A549 | cell growth or viability, MTT | – | 50 µg/mL, 48 h | – | viability | 33.8% |
| N[C@H](C(=O)N1CCCC1)C1CCN(c2nccc3c(-c4ncc(Cl)cc4Cl)cccc23)CC1 | human neutrophils | protein citrullination, inhibitor, flow cytometry, refers to: citrullinated histone H3 | – | 3.16 µM, added: ionomycin | – | inhibition | 79.3% and 80% and 81.1% and 83.1% |
